Measurements collected from several papers.
Each numbered part is a random draw from the data of one study; scales do not carry over between parts.

Sample 1 — technique: universal PBM; molecule type: double-stranded DNA, one strand shown; matrix: in vitro; tested at: 600 nM; direction: higher = stronger binding
Target: Sal-like protein 4, full length isoform A (SALL4, Homo sapiens, UniProt Q9UJQ4, residues 1-1053)
Chain of UniProt Q9UJQ4 (whole entry, looked up): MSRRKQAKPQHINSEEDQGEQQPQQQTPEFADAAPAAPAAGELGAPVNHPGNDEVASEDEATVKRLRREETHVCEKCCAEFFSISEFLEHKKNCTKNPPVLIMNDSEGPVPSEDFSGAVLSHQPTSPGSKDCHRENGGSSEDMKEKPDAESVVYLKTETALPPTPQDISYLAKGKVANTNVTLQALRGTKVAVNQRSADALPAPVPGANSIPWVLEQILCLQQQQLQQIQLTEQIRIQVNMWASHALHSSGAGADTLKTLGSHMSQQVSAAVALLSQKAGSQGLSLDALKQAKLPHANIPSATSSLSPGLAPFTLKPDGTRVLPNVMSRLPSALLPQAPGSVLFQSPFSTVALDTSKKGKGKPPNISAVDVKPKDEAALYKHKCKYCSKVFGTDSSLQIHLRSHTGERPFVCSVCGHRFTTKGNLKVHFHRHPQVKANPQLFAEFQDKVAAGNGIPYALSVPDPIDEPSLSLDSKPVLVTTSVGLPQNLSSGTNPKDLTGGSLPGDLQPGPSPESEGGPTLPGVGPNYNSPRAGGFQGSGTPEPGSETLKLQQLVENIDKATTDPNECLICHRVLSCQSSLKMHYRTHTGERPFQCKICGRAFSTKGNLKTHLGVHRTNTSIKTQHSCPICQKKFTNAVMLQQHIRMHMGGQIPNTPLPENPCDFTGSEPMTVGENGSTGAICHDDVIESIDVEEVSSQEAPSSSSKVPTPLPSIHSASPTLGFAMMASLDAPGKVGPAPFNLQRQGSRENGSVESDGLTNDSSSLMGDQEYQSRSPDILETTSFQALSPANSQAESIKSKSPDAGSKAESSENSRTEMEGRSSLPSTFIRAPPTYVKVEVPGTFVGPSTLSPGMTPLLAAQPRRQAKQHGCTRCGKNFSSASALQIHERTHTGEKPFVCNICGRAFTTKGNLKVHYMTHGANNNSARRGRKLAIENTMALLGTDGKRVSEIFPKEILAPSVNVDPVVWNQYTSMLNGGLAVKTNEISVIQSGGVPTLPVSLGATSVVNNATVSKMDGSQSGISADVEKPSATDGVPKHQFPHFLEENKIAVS
Setting: 8-mer, flanks averaged, mean of replicates
Oligonucleotide | E-score
ACCGATTA | 0.0649
TACGCTGA | 0.143
AGTTCATG | -0.0762
AGAAACGC | -0.12
ACTCTATA | 0.24
ACAGTGCA | -0.0521
CTCTTCGA | -0.0398
CGGTCTCA | -0.0437

Sample 2 — read-out: enzyme activity; mode: inhibitor; tested at: 20 µM
Target: Replicase polyprotein 1ab, polymerase (rep, Severe acute respiratory syndrome coronavirus 2, UniProt P0DTD1)
Structure (SMILES) | inhibition [%]
c1ccc([C@@H]2C[C@H]2NC2CCNCC2)cc1 | -4.09
CC(C)N(CCCCOCC(=O)NS(C)(=O)=O)c1cnc(-c2ccccc2)c(-c2ccccc2)n1 | -2.14
CCN1C(C)(C)CC(Oc2ccc(C(=O)Nc3ccc(NC(=O)Nc4cc(C(C)(C)C)on4)cc3)nc2)CC1(C)C | 0.5
CN1CCC(CNc2ccc3ncc(-c4cccc(OC(F)(F)F)c4)n3n2)CC1 | -8.61
Cn1cc(-c2ccc3ncc(Cc4ccc5ncccc5c4)n3n2)cn1 | 1.91
CCc1c2c(nc3ccc(OC(=O)N4CCC(N5CCCCC5)CC4)cc13)-c1cc3c(c(=O)n1C2)COC(=O)[C@]3(O)CC | 14.6
CC1(C)Oc2ccc(C#N)cc2[C@@H](OC2=CC(=O)CC2)[C@@H]1O | -4.67
CN1C(CCl)Nc2cc(Cl)c(S(N)(=O)=O)cc2S1(=O)=O (centres unmarked) | -2.41
CN1c2c([nH]c(N)nc2=O)NC[C@@H]1CNc1ccc(C(=O)N[C@@H](CCC(=O)O)C(=O)O)cc1 | 3.69
CCn1c(-c2ccc(Cl)cc2)n[nH]c1=O | -7.92
CCCN(CCc1cccs1)[C@H]1CCc2c(O)cccc2C1 | -1.76
CCC1=C(C)CN(C(=O)NCCc2ccc(S(=O)(=O)NC(=O)N[C@H]3CC[C@H](C)CC3)cc2)C1=O | -3.98
C[C@H](NC(=O)c1sccc1OCc1ccc(Cl)cc1)c1ccccc1 | -1.74
CCCN(CCC)CCc1cccc2c1CC(=O)N2 | -1.89
Nc1cccc(CNC(=O)c2ccc(Oc3ccc(OCc4cccc(F)c4)cc3)nc2)c1 | 5.65
c1ccc(-c2[nH]ncc2-c2ccnc3ccccc23)nc1 | 0.42
O=C1C(CC[S+]([O-])c2ccccc2)C(=O)N(c2ccccc2)N1c1ccccc1 (centres unmarked) | 23
NC(=O)CC[C@H](N)C(=O)O | -2.24
OC[C@H]1O[C@@H](OCCc2ccc(O)cc2)[C@H](O)[C@@H](O)[C@@H]1O | -0.34
NC(=O)N1c2ccccc2C=Cc2ccccc21 | 4.44

Sample 3 — technique: RNA Bind-n-Seq; molecule type: RNA; matrix: in vitro; tested at: 365 nM; baseline: no-protein control; direction: higher = stronger binding
Target: RNA binding protein fox-1 homolog 2, RRM domain, GST-SBP tag (RBFOX2, Homo sapiens, UniProt O43251-10, residues 100-194)
Setting: natural RNA segment, single round, ends assumed
Shared flanks, not repeated: GGGAGUUCUACAGUCCGACGAUC … UGGAAUUCUCGGGUGCCAA
Oligonucleotide | RBNS enrichment (R)
GAAGACAUUUGUGAGAGAGGAGAUGAUUAGAAUUCUAGUAAUGUACUUUUAAGAUGUUACAGAUACAAAGAAAUGAUGUGGGUGUCAGGAGACUAAAGGAUGUUGAAGGC | 0.941
GUUUGAAACCAACCUUGGCUGCAUACAGAUGAUGUAUAUAUAGGCCAGCAUGGGUUACACUGUCUGUCUUAGCAAACAAAAUUUCAACUGUUUGAGAAAGAUUUUGUUCU | 1.28
GGGUUUUAGGUGUCUCUCUUUGUGUUUUCUGUGGUUUGUGAUGCACGUGCGCAGGAAGGGCUCCUCUUAGAGAAGCAGCCAAACUGUGAAGCACUAAGCUGACCCUGCUU | 0.867
AUUUGGUACUCAGAAAAGAACUGUUUAUACCACUCACCUUUCUCCCAGCAUGUACUCACUGUGGGCAGAUGCACCAAUACAUGGUAAUCCUCUUACUCAUUUUAAGACGU | 4.73
CAGUUUUCCGCUAGUAUCCGGCAAGGUUUCUUGCAACAAAUGAUUAGUUCUUUUCUUCUGACUCGUGGGGCUCCCUGCUGCAGAGAGCACAGCCCUUGCCUGGAGCCCAG | 0.398
UUAAGCUGCCUGUGAUAUGUCCACUGGGCUGAGAUUGGAGGCCUCAGGCAGGAGCCCACCCAUAGUUCUCUUCCCUAUGACGACUUCCCCAGAUAGCAUUAGCCACCCUG | 0.489
CAAAGUUUAGAUCUACAUUCUUCAUUGUAUUUGCUGUUUCUUAAUUGGGCACACACAACUCCUGGUCAUGUCCCAGUUCAGCACCGAUCGCUAAGGCCGAUCCUGUAGAA | 0.474
UGGGUGAAAGUGGUUCUAGAAACUGCACUGAAUAGUAGUAAAGCAAUAAGGCCCAAUUCAUCCCACAGCACUGAUCAUCUUUUAAUAUCCCACCCUAAGCGAACGGUAAG | 0.405

Sample 4 — read-out: enzyme activity; mode: inhibitor; tested at: 20 µM; setting: hit confirmation, with DTT
Target: Replicase polyprotein 1ab, main protease (rep, Severe acute respiratory syndrome coronavirus 2, UniProt P0DTD1)
Structure (SMILES) | inhibition [%]
CCCCC/C=C\C/C=C\C/C=C\C/C=C\CCCC(=O)O | 40.2
COC(=O)CC[C@H](NC(=O)[C@H](CC(=O)OC)NC(=O)OCc1ccccc1)C(=O)N[C@H](C(=O)N[C@@H](CC(=O)OC)C(=O)CF)C(C)C | 99.1
CSc1ccc(C(=O)c2[nH]c(=O)[nH]c2C)cc1 | -0.527
CCC[C@H](NC(=O)/C(C#N)=C/c1cccc(Br)n1)c1ccccc1 | -6.6

Sample 5 — cell line: HEK-293T; read-out: pseudovirus infection; organism: VSV pseudotyped with SARS-CoV-2 spike; tested at: 10 µM; time: 16 h; baseline: vehicle-treated
SMILES | GFP-positive cells [%]
CCCCN1CCCC[C@H]1C(=O)Nc1c(C)cccc1C | 90.6
COc1c(N2CCNC(C)C2)c(F)cc2c(=O)c(C(=O)O)cn(C3CC3)c12 (centres unmarked) | 81.7
C[C@@H](c1nc(-c2ccc(C#N)cc2)cs1)[C@](O)(Cn1cncn1)c1cc(F)ccc1F | 104
O=C1Nc2ccc(Cl)cc2[C@@](C#CC2CC2)(C(F)(F)F)O1 | 95.4

Repeated from above (sample 5):
SMILES | GFP-positive cells [%]
CCCCN1CCCC[C@H]1C(=O)Nc1c(C)cccc1C | 90.6
COc1c(N2CCNC(C)C2)c(F)cc2c(=O)c(C(=O)O)cn(C3CC3)c12 (centres unmarked) | 81.7
C[C@@H](c1nc(-c2ccc(C#N)cc2)cs1)[C@](O)(Cn1cncn1)c1cc(F)ccc1F | 104
O=C1Nc2ccc(Cl)cc2[C@@](C#CC2CC2)(C(F)(F)F)O1 | 95.4
